Measurements collected from several papers.
Parts stem from different laboratories: compare values within a part only. Positions count from the first letter of the parent shown.

Block 1 — technique: RNA Bind-n-Seq; form: RNA; matrix: in vitro; tested at: 200 nM; notes: whole 134-nt RNA, ends assumed; together with: 150 mM LiCl; relative to: input library; reading: higher = stronger binding; each molecule: 7-deaza-guanosine replaces G
Target: Fragile X messenger ribonucleoprotein 1, C-terminal low-complexity region (Fmr1, Mus musculus, UniProt P35922)
All sequences stand within: GGGAGUUCUACAGUCCGACGAUC … UGGAAUUCUCGGGUGUCAAGG
With `GUCCUGUGCUACACAUCGUAUGUACCGAAUCGGAAAAAAGGGAAAAAAGGAAAAAAGGGAAAGUAUUAUGUUACGCCGUUCGGAUCUGCA` the log2 enrichment was -0.0386.
The log2 enrichment of `ACCAUGCAGGUGGGCAUCUUUGGGAAAAAGGGCAAGGGGGGGAUAGGGAGGGGGGUAACACUUUGGGAACAGGUGGUCCCAGGUCGUUUC` is reported as 1.19.
The log2 enrichment of `CACAGACAACACGCACCCACACAGACACAGAGGGAAGGGGUUGGGAUGGGGACAGGGUGCGCAGCAGGGCGGGGUAGGACCCCAGCCCCU` is reported as -0.957.
`CACAGACAACACGCACCCACACAGACACAGAGGGAAGGGGUUGGGAUGGGGACAGGGUAAACAGCAGGGCGGGGUAGGACCCCAGCCCCU` has a log2 enrichment of 0.0836.
The log2 enrichment of `UGUACUCGGAAGUUUCACUUACCAUCGACCACUCUCUGAUUCCGGAGGAGAGGCUCUCGCCCACCCCAUCCAUGCAGGAUGGGCUCGACC` is reported as 0.843.
For `UGGGAGGUGGAUUUUGUUUAUUGUUUUAGCUCAUUUCCAGGGGUGGGAAUUUUUUUUUAAUAUGUGUCAUGAAUAAAGUUGUUUUUGAAA`, the log2 enrichment was 0.0646.
The log2 enrichment of `CACAGACAACACGCACCCACACAGACACAGAGGGAAGGGGUUGGGAUGGGGACAGGGUGCACAGCAGGGCGGGGUAGGAAAACAGCCCCU` is reported as 1.32.
With `UCAAGUCCUGUGCUACACAUCGUAUGUACCGAAUCGGGGCCGGCCGGGGCCGGGGAAAGUAUUAUGUUACGCCGUUCGGAUCUGCACUUC` the log2 enrichment was -0.525.

Block 2 — technique: aptamer microarray, sandwich; form: DNA with 2'F-ANA; matrix: in vitro; tested at: 200 nM; together with: Cy3 exosite-II aptamer, 400 nM; reading: higher = stronger binding; oligonucleotide: GGTTGGTGTGGTTGG
Target: Prothrombin, mature alpha-thrombin (F2, Homo sapiens, UniProt P00734)
Notes: whole 15-mer aptamer, many near background
For `2'F-ANA at 1 6 7 8 9 12 14 15`, “mean fluorescence intensity” read 76.9 a.u.
For `2'F-ANA at 2 5 9 11 12 13`, “mean fluorescence intensity” read 97.1 a.u.
`2'F-ANA at 3 4 5 11 13` — result for “mean fluorescence intensity”: 64.2 a.u.
For `2'F-ANA at 2 3 6 7 9 10 11 13 14`, “mean fluorescence intensity” read 227 a.u.
`2'F-ANA at 1 2 4 5 7 8 9 12 14 15`: “mean fluorescence intensity” 48.1 a.u.
For `2'F-ANA at 1 3 4 5 6 7 8 9`, “mean fluorescence intensity” read 66.7 a.u.
For `2'F-ANA at 1 2 4 5 7 8 9 13 14`, “mean fluorescence intensity” read 45.8 a.u.
`2'F-ANA at 2 5 7 8 9 12 14`: “mean fluorescence intensity” 49 a.u.
`2'F-ANA at 1 3 4 9 13` — result for “mean fluorescence intensity”: 125 a.u.
Under “mean fluorescence intensity”, `2'F-ANA at 1 6 8 13` is recorded as 156 a.u.
`2'F-ANA at 1 3 4 6 8 9 10 13` — result for “mean fluorescence intensity”: 56.2 a.u.
For `2'F-ANA at 3 4 5 6 8 11 12 13 14`, “mean fluorescence intensity” read 48.9 a.u.

Block 3 — technique: RNA Bind-n-Seq; form: RNA; matrix: in vitro; tested at: 365 nM; relative to: no-protein control; reading: higher = stronger binding
Target: RNA binding protein fox-1 homolog 2, RRM domain, GST-SBP tag (RBFOX2, Homo sapiens, UniProt O43251-10, residues 100-194)
Notes: natural RNA segment, single round, ends assumed
All sequences stand within: GGGAGUUCUACAGUCCGACGAUC … UGGAAUUCUCGGGUGCCAA
Construct (chain): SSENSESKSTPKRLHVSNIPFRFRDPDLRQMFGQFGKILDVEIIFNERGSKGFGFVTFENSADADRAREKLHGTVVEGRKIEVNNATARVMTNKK
Under “RBNS enrichment (R)”, `GGCUAUAGGAUAUAAGCAUUAGGGACCCUGAGGCUUUAAGUGGUUUCUAUUUCUUCUUAGUUAUUAUGUGCCACCUUCUUAGUUAUUAUGUGCCACCUCCCCUAUGAGUG` is recorded as 0.389.
Under “RBNS enrichment (R)”, `UGUAUUUGAAAAAUAAUCUUCCUGUGUACUUUCUCAAACCUGCGCUCAGUAAUAUACUUUAUUCUUUGAAGAUUUAAUUUAAAAACUUCAUAGAAAAUCCUUUUUUGCUU` is recorded as 1.41.
`GGGGAGGGGGUUGUGGUAAGGGCCCUCUGGAAAUCAAGCAGAGAAUGCCUUUGCAGUGGUCUCCCGGGCAUUGGGCAGGGCCUAGCCUUUUGCAGCCCCCAGAGGACCUU` — result for “RBNS enrichment (R)”: 0.495.
`AGUCUUGUUACUCAAUGACUUUUGUCAUGGCAGUUUGUUCUACUUUAGACUGUAAAUUAUGCAUUAUAAAGAGUUCAUUUAAAGAAAACUACUUGGUACAAUAAUUAUUG`: “RBNS enrichment (R)” 0.356.
`CCGGCAAAUUAUGUGGAGGCGAUCCAGUGAUGAGUCGGGGACAGGCCAGCGGGGGGACGGAGGCGGCGGGCCCAGGAGCCUCAGCCAGCCACGUGGGCAUCCACUCCUUU`: “RBNS enrichment (R)” 0.474.
Under “RBNS enrichment (R)”, `CCCCUGCAGCGGCUUUCAGUAUUUUGUACUUGUAGGCACCUAAUAAAUUUAUUAUUUGCUAUACUGACUGAUUGGAUUAGCUUCUGUUACUGCAAAGGGAAGAGCAUCUA` is recorded as 0.397.
`GGGCAUUGUGGCAGAAUUUUAGGAAGGCAUUGUACAGCCUCUAAGCAUAUCUAAGUGCCAUGAAUACAUUUUCCCUACUCUAUAGCAUAGCUCUGUAAAACUUGUCCUGU` — result for “RBNS enrichment (R)”: 0.367.
Under “RBNS enrichment (R)”, `UCCUACCUUUUGACAUUGUGACUUGGCUUUGUUAAAAACUUGCAAAAAAAAUCAUGUUUUAAAUGUUAUGAUUUUGUGUUAGGCUGAAUUUAUAGCUGUCCUUGACCUCG` is recorded as 1.27.

Block 4 — target: CCND2, cyclin fold, Cln2 fusion (human); technique: yeast growth competition, sequencing; matrix: yeast; notes: weak parent motif; relative to: not given; reading: higher = stronger binding
Starting sequence: SAMHD1 docking peptide (human); ASKSRVQLFKDDP
`K10G` — result for “normalised enrichment score”: 0.361.
`K10V`: “normalised enrichment score” -0.0266.
For `L8H`, “normalised enrichment score” read -0.0742.
`L8Q` — result for “normalised enrichment score”: 0.142.
For `V6A`, “normalised enrichment score” read -0.00504.
Under “normalised enrichment score”, `Q7H` is recorded as 0.357.
For `S4E`, “normalised enrichment score” read -0.368.
`Q7A` — result for “normalised enrichment score”: 0.158.
`Q7R` — result for “normalised enrichment score”: 0.501.
`K3E` — result for “normalised enrichment score”: 0.355.
`D11G` — result for “normalised enrichment score”: 0.135.
For `S2C`, “normalised enrichment score” read 0.0224.
`S2N` — result for “normalised enrichment score”: 0.0838.
Under “normalised enrichment score”, `S4W` is recorded as -0.00467.
`Q7I`: “normalised enrichment score” -0.127.
`S2H` — result for “normalised enrichment score”: 0.346.
`S2G`: “normalised enrichment score” 0.0197.
Under “normalised enrichment score”, `S2V` is recorded as 0.379.
`D12N` — result for “normalised enrichment score”: 0.351.
`V6R`: “normalised enrichment score” -0.0496.
Under “normalised enrichment score”, `R5G` is recorded as 0.104.
`D12W`: “normalised enrichment score” -0.4.
For `D11V`, “normalised enrichment score” read 0.0804.
`L8W`: “normalised enrichment score” 0.257.
`K10A`: “normalised enrichment score” 0.0037.

Further values, each from its own experiment
`PhoQ, residues 284 288 289 292 302 303 ASHLAV` has a fold induction of 1.12 (PhoP, residues 12 14 15 18 19 SYFRT (Escherichia coli, UniProt P23836); Sort-seq, measured: YFP reporter; E. coli; PhoQ-PhoP variant library, together with: 10 µM Mg2+; relative to: high Mg2+ state, higher = stronger signaling).

For quick reference, copied from above (block 4):
For `S4E`, “normalised enrichment score” read -0.368.
`Q7A` — result for “normalised enrichment score”: 0.158.
`Q7R` — result for “normalised enrichment score”: 0.501.
`K3E` — result for “normalised enrichment score”: 0.355.
`D11G` — result for “normalised enrichment score”: 0.135.
For `S2C`, “normalised enrichment score” read 0.0224.
`S2N` — result for “normalised enrichment score”: 0.0838.
